Published values of several laboratories.
Each line is one published result; not all experiments were run side by side. Values joined by “and” are separate records of one study, mostly repeats; a detail may differ. Numbers after ± are the reported error. Values after ≈ are worked out from the molar mass of the structure shown.

| SMILES | assay | system | conditions | scale | endpoint | result |
| --- | --- | --- | --- | --- | --- | --- |
| C[C@@H]1COCCN1c1cc(C2([S@](C)(=N)=O)CC2)nc(-c2cc[nH]c3nccc2-3)n1 |  | Japanese advanced solid tumour patients | oral, 160 mg twice daily, any grade |  | Paronychia incidence | 16.7% |
| c1ccc(-c2nc(NCCn3ccnc3)c3ccccc3n2)nc1 |  | Japanese Pharmacopoeia disintegration test solution 2 | pH 6.8 |  | kinetic solubility | 81 µg/mL (≈ 256 µM) |
| NS(=O)(=O)c1ccc(CNc2nc(Nc3cccc(CN4CCOCC4)c3)ncc2Br)cc1 | PAMPA | PBS | 5 h, pH 7.4 |  | PAMPA permeability | not detected |
| Clc1cccc(Nc2ncnc3ccc(-c4cccc(N5CCOCC5)c4)cc23)c1 |  | 0.1 M phosphate buffer | pH 7.4, 25 °C |  | thermodynamic solubility | 12 µM (≈ 5 µg/mL) |
| CN(CCCN1CCN(C(=O)CN2CCN(CC(=O)[O-])CCN(CC(=O)[O-])CCN(CC(=O)[O-])CC2)CC1)c1ccc2nccc(C(=O)NCC(=O)N3CC(F)(F)C[C@H]3C#N)c2c1.[68Ga+3] |  | mice, HT-1080.hFAP and HT-1080 wild-type xenografts, stomach | iv, 500 pmol, 4 h post injection |  | uptake | 0.1 %IA/g |
| Cn1cc(Nc2nccc(-c3ccc4c(c3)CN(C3COC3)CC[C@H]4NC(=O)c3cn(C(C)(C)C)nn3)n2)cn1 |  | human, whole blood | 300 mg twice daily, day 14 | relative to: pre-dose baseline | CD4+ T cell count change | -5.15% |
| C=CC(=O)Nc1cc(Nc2nccc(-c3cn(C)c4ccccc34)n2)c(OC)cc1N(C)CCN(C)C | storage stability | human plasma | 30 d, on ice, MQC level |  | recovery | 50.3% |
| CCn1cc(C(=O)N2CCOCC2)c(=O)c2cc(NC3Cc4ccccc4C3)cnc21 |  | human, fed | oral suspension, 600 mg/day twice daily, day 8, arithmetic mean |  | half-life | 5.43 h |
| O=C(O)c1cc(O)c(O)c(O)c1 |  | broiler chickens, serum | oral, in feed, 2000 mg/kg feed, wheat diet with tannins |  | AUC | 1.71 ± 0.31 µM·h |
| Cc1nc(-c2ccc(OCC(C)C)c(C#N)c2)sc1C(=O)O |  | KM mouse, chronic hyperuricaemia model | dose not given, day 26 |  | body weight | 39.3 g and 34.9 g and 38.4 g and 41.2 g and 33.7 g and 44.2 g |
| O=C(N[C@H](Cc1c[nH]c2ccccc12)C(=O)Nc1ccncc1)c1ccc(N2CCN(c3ccc(F)cc3F)CC2)cc1F |  | Swiss Webster mouse, female, muscle | oral, 50 mg/kg, 2 h, 20% Kolliphor vehicle |  | concentration | 11.5 µM |
| CNC(=O)c1ccc(-c2cnc3ncc(Cc4ccc5ncccc5c4)n3n2)cc1F |  | Japanese patients | oral, 400 mg, grade 3/4 |  | Neutrophil count decreased dose reduction/interruption | 2% |
| O=c1oc2c(O)c(O)cc3c(=O)oc4c(O)c(O)cc1c4c23 |  | rat, plasma | oral, 1000 mg/kg extract, possible metabolite or extract component |  | MRT | 4.87 ± 0.48 h |
| CNC(=O)c1ccc(-c2cnc3ncc(Cc4ccc5ncccc5c4)n3n2)cc1F | CTCAE v4.0, any causality | human hepatocellular carcinoma patients | oral, 600 mg twice daily, expansion cohort at RP2D |  | creatinine increase incidence (all grades) | 9% |
| O=C(O)CCCOc1ccc([18F])cc1-c1cc(-c2ccccc2C(F)(F)F)n(-c2ccccc2)n1 | gamma counting | male ddY mice, kidney | intravenous, 2.1 MBq, 5 min |  | radioactivity uptake | 3.29 ± 0.58 SUV |
| Cc1c(-c2ccc(N3CCc4cccc(C(=O)Nc5nc6ccccc6s5)c4C3)nc2C(=O)O)cnn1CC12CC3(C)CC(C)(C1)CC(OCCNCC[C@H](O)CO)(C3)C2 |  | beagle dog, male, anaesthetised | intravenous infusion, 0.3 mg/kg/min, 45 min | relative to: vehicle | mean arterial pressure change | -24% |
| O=C(Nc1nc2cccc(-c3ccc(CN4CCS(=O)(=O)CC4)cc3)n2n1)C1CC1 | refers to: somnolence | rheumatoid arthritis patients | oral, 150 mg once daily, 4 weeks, any relatedness |  | treatment-emergent adverse events | 0% |
| Cc1nonc1OCCNc1cc(N2CCOCC2)ccc1[N+](=O)[O-] |  | aqueous buffer | pH 7.4 |  | thermodynamic solubility | < 4.29 µM |
| N#CCC1CCN(c2nc(Nc3ccc(N4CCC(O)CC4)cc3)c3c(=O)[nH]ncc3n2)CC1 |  | human, plasma | oral, 20 mg once daily, day 15 |  | t1/2 | 7.33 h |
| CCCOc1ccc(NC(=O)CN2CCN(C)CC2)cc1-c1nc(CC)c(CC)c(=O)[nH]1 |  | healthy Chinese men | 10 mg, supine or semi-supine, together with: alcohol 0.5 g/kg |  | AUEC(0-4 h) diastolic BP | -22.8 ± 18.9 h·mmHg |
| CC(C)n1c(Nc2cccnc2)nc2cnc(Nc3ccc(N4CCN(C)CC4)cc3)nc21 | refers to: investigations (SOC) | healthy male subjects | oral, 150 mg, study, together with: rifampin |  | subjects with adverse event | 50% |
| COc1ncc(-c2nc3c(n2C(C)C)[C@H](c2ccc(Cl)cc2)N(c2cc(Cl)cn(C)c2=O)C3=O)c(OC)n1 | LC-MS/MS | human, plasma | oral, 20 mg, cycle 1 day 8, low-dose arm |  | AUC(0-last) | 1130 ng·h/mL |

| SMILES | assay | system | conditions | scale | endpoint | result |
| --- | --- | --- | --- | --- | --- | --- |
| CCCC1CCC(C2CCC(c3cc(F)c(F)c(F)c3)CC2)CC1 (stereo not shown) |  | rat, fetus | 5000 ng/mL in perfusate, high dose, mixture of 21 LCMs |  | median fetal accumulation | 4.25 ng/g |
| CN1CCC[C@H](CN2c3ccccc3Sc3ccccc32)C1.Cl |  | fasted female ICR mouse, skin | oral, 16 mg/kg |  | Tmax | 2 h |
| Cc1c(C(=O)O)ccc2c3n(nc12)[C@@H]1[C@H](C3)N(CC2CC2)[C@@]2(C(=O)Nc3cc(Cl)ccc32)[C@H]1c1cccc(Cl)c1F |  | human patients phase Ia | oral, dose not given, grade ≥3, all patients |  | abdominal pain incidence | 1.9% |
| CCc1c(-c2ccccc2)c(-c2ccccc2)nn1-c1ccccc1-c1cccc(OCC(=O)O)c1 |  | male Sprague-Dawley rat, testis homogenate | oral, 10 mg/kg, 4 h |  | concentration | 59.4 ng/mL |
| CCCCc1ccc(-c2ccc(C#N)cc2)cc1 |  | Sprague-Dawley rat, female, placenta | 5000 ng/mL in perfusate, 50 (unit not given), high dose, mixture of 21 LCMs |  | median placental accumulation | 336 ng/g |
| COc1cc(Nc2ncc3c(n2)-c2ccc(Cl)cc2C(c2c(F)cccc2OC)=NC3)ccc1C(=O)O | refers to: Constipation, grade 2 | cancer patients, phase 1/2 | oral, dose not given, together with: pembrolizumab |  | patients with adverse event | 4% |
| Cc1ccc(Sc2ccccc2N2CCNCC2)c(C)c1 | refers to: feeling abnormal | healthy adult men | oral, 5 mg daily, 12 days |  | participants with TEAE | 0% |
| Cc1nc2cccc(OCC(C)(C)C(=O)NC(C)C)c2c(N)c1C(=O)O |  | Sprague-Dawley rat, male, plasma | oral, 30 mg/kg, day 7 over day 1, 7-day repeated dosing | relative to: day 7 over day 1 | AUClast ratio | 0.95 ± 0.15 |
| CCN(CC)Cc1ccc2cc(COC(=O)Nc3ccc(C(=O)NO)cc3)ccc2c1 |  | rat plasma | 5 ng/mL, three freeze-thaw cycles | relative to: nominal concentration | stability relative error | 88% |
| N#Cc1ccc(-c2cnc3ccc(-c4ccc(C(=O)N5CCOCC5)cc4)cn23)cc1 | refers to: QT interval | healthy volunteers | oral, 10 mg, fasted, time-averaged |  | placebo-corrected change from baseline | 9.5 ms |
| COc1ccc2[nH]cc(CCNC(=O)Nc3ccc(Cl)c(Cl)c3)c2c1 |  | aqueous buffer | pH 7.4 |  | thermodynamic solubility | < 7.14 µM |
| Cc1cc(C(=O)NC(C)(C)COc2cccc3c2C(N)=NS(=O)(=O)N3)cc(C)n1.O=S(=O)(O)O |  | Sprague-Dawley rat, plasma | oral, 10 mg/kg, vehicle 1% methylcellulose | relative to: female over male | Cmax ratio | 1.14 |
| CC(C)(C(=O)N1CCOc2c(C#N)cncc2C1)C(F)F | refers to: infections and infestations | human | oral, 20 mg twice daily, 14 days, multiple ascending dose |  | subjects with adverse event | 0% |
| C=CC(=O)Nc1cc(Nc2nccc(-c3cn(C)c4ccccc34)n2)c(OC)cc1N(C)CCN(C)C | refers to: white blood cell count decreased | EGFR-mutant MET-altered NSCLC patients | oral, dose not given, AE grade ≥3, all |  | incidence of treatment-related AEs | 3% |
| CCc1cc(C(=O)NC)c2nccc(N3CCc4c(cc(Cn5ccnc5)cc4-c4cn(C)nc4C(F)(F)F)C3=O)c2c1 |  | Sprague Dawley rats | oral, 100 mg/kg twice daily, 7 days |  | serum TBA level | 19.8 ± 12.7 µmol/L |
| C1=C/COCc2cc(ccc2OCCN2CCCC2)Nc2nccc(n2)-c2cccc(c2)COC/1 |  | rat plasma | 1200 ng/mL, 1 months, -20 °C, long-term storage | relative to: nominal concentration | stability relative error | 0.51% |
| O=C1CCc2ccc(OCCCCN3CCN(c4cccc(Cl)c4Cl)CC3)cc2N1 | refers to: Akathisia | genotyped patients, CYP2D6 ultrarapid metabolizers | dose not given, long-acting oral or depot |  | adverse event incidence | 11% |
| C=CC[C@@H]1/C=C(\C)C[C@H](C)C[C@H](OC)[C@H]2O[C@@](O)(C(=O)C(=O)N3CCCC[C@H]3C(=O)O[C@H](/C(C)=C/[C@@H]3CC[C@@H](O)[C@H](OC)C3)[C@H](C)[C@@H](O)CC1=O)[C@H](C)C[C@@H]2OC |  | Wistar Kyoto rat, male, plasma | ip, 0.5 mg/kg/day, day 28, at sacrifice |  | plasma HCO3- level | 25.9 ± 1.2 mmol/L |
| N#Cc1ccc2c(c1)[C@H]1CCCN(C(=O)c3ccc4[nH]cnc4c3)[C@H]1C2 |  | human females | 240 mg, day 7 |  | total testosterone level | 1 nmol/L |
| O=C1NCCc2nc(OCc3cccc(F)c3)ccc21 | refers to: Salivation | Sprague-Dawley rat male | oral, 100 mg/kg, 30 min | direction not given | Irwin test score | 0 |
| Nc1ncc(-c2ccncc2)nc1Nc1ccc2[nH]ccc2c1 |  | C57BL mice, male, plasma | subcutaneous, 10 mg/kg |  | t1/2 | 0.3 h |

For quick reference, copied from above:
| SMILES | assay | system | conditions | scale | endpoint | result |
| --- | --- | --- | --- | --- | --- | --- |
| N#Cc1ccc2c(c1)[C@H]1CCCN(C(=O)c3ccc4[nH]cnc4c3)[C@H]1C2 |  | human females | 240 mg, day 7 |  | total testosterone level | 1 nmol/L |
| CN1CCC[C@H](CN2c3ccccc3Sc3ccccc32)C1.Cl |  | fasted female ICR mouse, skin | oral, 16 mg/kg |  | Tmax | 2 h |
| CNC(=O)c1ccc(-c2cnc3ncc(Cc4ccc5ncccc5c4)n3n2)cc1F | CTCAE v4.0, any causality | human hepatocellular carcinoma patients | oral, 600 mg twice daily, expansion cohort at RP2D |  | creatinine increase incidence (all grades) | 9% |
| Cc1nc2cccc(OCC(C)(C)C(=O)NC(C)C)c2c(N)c1C(=O)O |  | Sprague-Dawley rat, male, plasma | oral, 30 mg/kg, day 7 over day 1, 7-day repeated dosing | relative to: day 7 over day 1 | AUClast ratio | 0.95 ± 0.15 |
| C1=C/COCc2cc(ccc2OCCN2CCCC2)Nc2nccc(n2)-c2cccc(c2)COC/1 |  | rat plasma | 1200 ng/mL, 1 months, -20 °C, long-term storage | relative to: nominal concentration | stability relative error | 0.51% |
| N#CCC1CCN(c2nc(Nc3ccc(N4CCC(O)CC4)cc3)c3c(=O)[nH]ncc3n2)CC1 |  | human, plasma | oral, 20 mg once daily, day 15 |  | t1/2 | 7.33 h |
| O=C(N[C@H](Cc1c[nH]c2ccccc12)C(=O)Nc1ccncc1)c1ccc(N2CCN(c3ccc(F)cc3F)CC2)cc1F |  | Swiss Webster mouse, female, muscle | oral, 50 mg/kg, 2 h, 20% Kolliphor vehicle |  | concentration | 11.5 µM |
